Experimental data of several laboratories.
Several values in a cell are separate wells, animals, samples, runs or records. Numbers after ± are the reported error.
topA: DNA topoisomerase 1 (topA, Escherichia coli, UniProt P06612)
Sequence of UniProt P06612 (whole entry, looked up): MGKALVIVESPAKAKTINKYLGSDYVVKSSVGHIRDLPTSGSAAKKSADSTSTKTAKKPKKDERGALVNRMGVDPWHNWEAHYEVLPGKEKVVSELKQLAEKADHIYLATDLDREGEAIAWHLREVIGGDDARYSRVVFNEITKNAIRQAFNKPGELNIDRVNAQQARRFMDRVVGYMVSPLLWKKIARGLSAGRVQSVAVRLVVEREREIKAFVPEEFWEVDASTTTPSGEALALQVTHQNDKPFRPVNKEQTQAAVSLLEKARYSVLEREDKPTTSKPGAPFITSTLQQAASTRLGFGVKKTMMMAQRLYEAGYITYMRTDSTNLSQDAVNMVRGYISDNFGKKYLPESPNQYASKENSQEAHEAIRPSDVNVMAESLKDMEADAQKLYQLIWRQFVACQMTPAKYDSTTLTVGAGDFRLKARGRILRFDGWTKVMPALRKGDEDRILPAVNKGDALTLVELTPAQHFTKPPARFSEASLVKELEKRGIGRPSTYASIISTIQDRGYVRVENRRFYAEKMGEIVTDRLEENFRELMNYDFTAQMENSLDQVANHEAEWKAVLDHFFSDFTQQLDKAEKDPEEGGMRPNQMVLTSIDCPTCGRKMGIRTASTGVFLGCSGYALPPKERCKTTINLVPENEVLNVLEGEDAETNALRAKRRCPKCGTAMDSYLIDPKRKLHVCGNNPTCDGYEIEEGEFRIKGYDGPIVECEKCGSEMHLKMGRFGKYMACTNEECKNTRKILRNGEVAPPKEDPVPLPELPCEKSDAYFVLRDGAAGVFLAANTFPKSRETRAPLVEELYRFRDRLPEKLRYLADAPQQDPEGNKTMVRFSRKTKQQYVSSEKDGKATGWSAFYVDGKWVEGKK
Genome polyprotein NS2B-NS3 protease: Genome polyprotein, NS2B-NS3 protease (ZIKV, UniProt A0A024B7W1)
EHMT1: Histone-lysine N-methyltransferase EHMT1 (EHMT1, Homo sapiens, UniProt Q9H9B1)
Sequence of UniProt P28074 (whole entry, looked up): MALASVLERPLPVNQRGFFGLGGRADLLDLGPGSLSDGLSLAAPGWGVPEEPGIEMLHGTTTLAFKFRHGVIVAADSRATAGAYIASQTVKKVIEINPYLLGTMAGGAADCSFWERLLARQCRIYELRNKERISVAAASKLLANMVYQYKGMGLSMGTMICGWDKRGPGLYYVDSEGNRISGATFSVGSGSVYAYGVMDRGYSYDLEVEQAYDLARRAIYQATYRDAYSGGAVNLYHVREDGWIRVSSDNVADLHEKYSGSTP
Sequence of UniProt Q8I6U4 (whole entry, looked up): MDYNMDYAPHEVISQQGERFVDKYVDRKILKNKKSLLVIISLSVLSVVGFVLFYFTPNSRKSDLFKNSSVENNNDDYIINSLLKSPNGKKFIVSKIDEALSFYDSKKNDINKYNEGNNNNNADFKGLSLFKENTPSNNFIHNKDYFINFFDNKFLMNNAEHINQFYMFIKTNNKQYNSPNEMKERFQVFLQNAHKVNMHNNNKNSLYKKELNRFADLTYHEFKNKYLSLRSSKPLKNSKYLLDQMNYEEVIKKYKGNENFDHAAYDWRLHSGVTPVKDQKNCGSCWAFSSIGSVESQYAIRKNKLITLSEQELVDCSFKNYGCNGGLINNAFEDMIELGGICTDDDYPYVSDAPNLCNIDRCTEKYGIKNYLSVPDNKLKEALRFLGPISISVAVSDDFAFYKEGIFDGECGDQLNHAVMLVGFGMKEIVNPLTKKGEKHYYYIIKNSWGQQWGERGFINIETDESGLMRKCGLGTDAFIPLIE
Sequence of UniProt Q9H9B1 (whole entry, looked up): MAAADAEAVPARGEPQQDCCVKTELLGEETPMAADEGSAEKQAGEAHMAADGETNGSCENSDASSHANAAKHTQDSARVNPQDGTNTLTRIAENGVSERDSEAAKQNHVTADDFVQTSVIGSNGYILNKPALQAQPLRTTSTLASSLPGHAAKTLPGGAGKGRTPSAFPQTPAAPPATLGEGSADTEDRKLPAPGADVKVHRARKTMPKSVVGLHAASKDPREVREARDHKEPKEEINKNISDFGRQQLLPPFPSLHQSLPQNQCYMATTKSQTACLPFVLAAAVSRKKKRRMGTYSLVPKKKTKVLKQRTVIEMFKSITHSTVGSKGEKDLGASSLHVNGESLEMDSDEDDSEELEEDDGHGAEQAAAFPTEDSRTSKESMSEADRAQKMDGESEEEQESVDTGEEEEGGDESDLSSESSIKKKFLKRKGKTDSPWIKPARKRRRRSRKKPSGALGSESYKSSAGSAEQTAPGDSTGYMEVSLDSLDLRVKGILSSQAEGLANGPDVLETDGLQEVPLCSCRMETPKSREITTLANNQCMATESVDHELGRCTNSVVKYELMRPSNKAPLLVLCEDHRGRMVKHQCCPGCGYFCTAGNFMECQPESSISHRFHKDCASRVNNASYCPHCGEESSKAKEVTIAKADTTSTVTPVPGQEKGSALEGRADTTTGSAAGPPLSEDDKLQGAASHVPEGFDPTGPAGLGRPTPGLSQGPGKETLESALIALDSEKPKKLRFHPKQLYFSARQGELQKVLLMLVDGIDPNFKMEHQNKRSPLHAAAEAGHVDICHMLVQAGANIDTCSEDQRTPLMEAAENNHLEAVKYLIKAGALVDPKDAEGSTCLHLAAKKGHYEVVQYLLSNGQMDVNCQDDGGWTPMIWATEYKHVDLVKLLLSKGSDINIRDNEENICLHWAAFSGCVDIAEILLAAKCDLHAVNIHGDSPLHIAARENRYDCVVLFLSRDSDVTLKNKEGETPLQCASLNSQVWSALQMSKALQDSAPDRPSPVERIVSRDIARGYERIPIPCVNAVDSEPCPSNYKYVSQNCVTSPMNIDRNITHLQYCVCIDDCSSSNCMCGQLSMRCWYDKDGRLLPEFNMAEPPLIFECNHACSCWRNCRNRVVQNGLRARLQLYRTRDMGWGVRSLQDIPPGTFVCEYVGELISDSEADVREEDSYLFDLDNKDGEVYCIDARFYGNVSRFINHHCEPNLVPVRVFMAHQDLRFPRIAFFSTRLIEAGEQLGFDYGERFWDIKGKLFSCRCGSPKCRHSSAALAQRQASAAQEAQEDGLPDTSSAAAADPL
Sequence of UniProt Q6NS38 (whole entry, looked up): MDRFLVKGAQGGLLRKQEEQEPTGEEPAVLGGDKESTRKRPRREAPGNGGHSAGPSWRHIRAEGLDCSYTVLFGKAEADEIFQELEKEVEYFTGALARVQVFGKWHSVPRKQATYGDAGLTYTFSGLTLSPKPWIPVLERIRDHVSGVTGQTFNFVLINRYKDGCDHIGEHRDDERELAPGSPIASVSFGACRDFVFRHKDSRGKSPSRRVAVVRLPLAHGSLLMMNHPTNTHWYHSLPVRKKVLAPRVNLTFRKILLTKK
Sequence of UniProt P63096 (whole entry, unmodified, looked up): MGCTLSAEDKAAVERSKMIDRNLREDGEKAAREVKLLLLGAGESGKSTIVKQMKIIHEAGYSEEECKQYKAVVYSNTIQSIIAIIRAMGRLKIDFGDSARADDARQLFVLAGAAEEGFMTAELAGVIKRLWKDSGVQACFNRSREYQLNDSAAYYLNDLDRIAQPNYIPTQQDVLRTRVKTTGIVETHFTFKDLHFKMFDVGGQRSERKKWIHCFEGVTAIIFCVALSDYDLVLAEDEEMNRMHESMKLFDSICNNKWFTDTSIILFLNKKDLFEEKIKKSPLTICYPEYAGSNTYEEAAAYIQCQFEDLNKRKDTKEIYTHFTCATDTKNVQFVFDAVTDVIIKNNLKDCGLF
Sequence of UniProt P00772 (whole entry, looked up): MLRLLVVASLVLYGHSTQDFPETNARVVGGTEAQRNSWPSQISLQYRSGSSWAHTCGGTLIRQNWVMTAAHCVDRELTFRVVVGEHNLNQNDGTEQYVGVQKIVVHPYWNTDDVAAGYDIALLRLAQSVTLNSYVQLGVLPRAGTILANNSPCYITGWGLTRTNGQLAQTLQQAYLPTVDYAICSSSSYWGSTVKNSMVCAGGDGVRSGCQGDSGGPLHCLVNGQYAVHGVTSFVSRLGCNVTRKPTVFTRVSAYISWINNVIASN
Sequence of UniProt Q99685 (whole entry, looked up): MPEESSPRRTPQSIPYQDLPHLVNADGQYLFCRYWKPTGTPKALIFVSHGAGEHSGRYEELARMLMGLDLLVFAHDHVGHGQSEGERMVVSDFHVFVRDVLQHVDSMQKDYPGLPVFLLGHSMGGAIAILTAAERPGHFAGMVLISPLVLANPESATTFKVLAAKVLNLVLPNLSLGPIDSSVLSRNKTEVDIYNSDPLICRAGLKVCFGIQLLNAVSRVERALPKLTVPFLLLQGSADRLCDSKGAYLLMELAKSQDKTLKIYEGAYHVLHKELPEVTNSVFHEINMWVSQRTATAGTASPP
Sequence of UniProt P0AFC7 (whole entry, looked up): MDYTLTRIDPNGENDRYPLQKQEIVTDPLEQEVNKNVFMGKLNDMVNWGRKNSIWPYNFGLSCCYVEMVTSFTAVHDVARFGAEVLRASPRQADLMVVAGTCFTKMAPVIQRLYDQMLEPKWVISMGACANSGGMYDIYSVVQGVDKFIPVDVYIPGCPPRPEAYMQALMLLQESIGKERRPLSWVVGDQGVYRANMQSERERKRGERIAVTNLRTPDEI
Sequence of UniProt Q92731 (whole entry, looked up): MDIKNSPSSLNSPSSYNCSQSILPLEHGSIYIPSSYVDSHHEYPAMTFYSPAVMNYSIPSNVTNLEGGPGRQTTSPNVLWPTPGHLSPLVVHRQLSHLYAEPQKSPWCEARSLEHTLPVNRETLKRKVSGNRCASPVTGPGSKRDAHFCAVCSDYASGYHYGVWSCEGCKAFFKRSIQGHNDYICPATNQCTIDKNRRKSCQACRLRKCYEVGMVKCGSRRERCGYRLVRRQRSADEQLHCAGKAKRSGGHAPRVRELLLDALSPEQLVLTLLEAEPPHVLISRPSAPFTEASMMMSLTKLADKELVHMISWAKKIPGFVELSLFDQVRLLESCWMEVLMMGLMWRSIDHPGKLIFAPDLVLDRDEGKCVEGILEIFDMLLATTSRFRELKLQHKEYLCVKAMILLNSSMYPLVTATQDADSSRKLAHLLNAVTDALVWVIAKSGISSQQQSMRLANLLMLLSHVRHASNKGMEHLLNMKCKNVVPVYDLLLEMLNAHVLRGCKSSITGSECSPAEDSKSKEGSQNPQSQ

COP(=S)(OC)Oc1ccc([N+](=O)[O-])cc1  IC50 (muscarinic receptors, rat; radioligand displacement; adult cortex membranes; 90 min, 21 °C, added: 1 nM [3H]oxotremorine-M): 0.8 nM
CCCCCCCCCCC(O)C1CCC(C2CCC(C(O)CCCCCCCCCCC(O)CC3=CC(C)OC3=O)O2)O1 (stereo not shown)  IC50 (nuoB/nuoH/nuoC (Escherichia coli, UniProt P0AFC7+P0AFD4+P33599); NADH:decylubiquinone oxidoreductase, inhibitor; pH 7.0): 11 nM
O=C(O)CC1=CC(=O)C(=O)C=C1  IC50 (NADH oxidase rat; enzyme activity, inhibitor; lysed rat brain mitochondria; no preincubation): 178000 nM
Fc1ccc(-n2cc(COc3ccnc4cc(Cl)ccc34)nn2)cc1  IC50 (FP2A (Plasmodium falciparum, UniProt Q8I6U4); enzyme activity, inhibitor, fluorescence; pH 5.5, with preincubation): 45800 nM and ~45000 nM
CCC(=C(c1ccc(OCCN2CCCC2)cc1)c1ccc(OCCN2CCCC2)cc1)c1ccccc1  IC50 (CNR2 (Homo sapiens, UniProt P34972); inverse agonist; CHO-hCB2 membranes): 300 ± 34 nM
C/C=C1\NC(=O)[C@@H](NC(=O)[C@@H](NC(=O)C/C(=C/Cl)CC)C(C)C)[C@@H](C)OC(=O)[C@H](C(C)C)NC(=O)[C@H](Cc2ccc(O)cc2)N(C)C(=O)[C@H](Cc2ccccc2)N2C(=O)[C@H](CC[C@H]2O)NC1=O  IC50 (CELA1 (Sus scrofa, UniProt P00772); enzyme activity, inhibitor, fluorescence; pH 7.4): 4.93 nM
Clc1ccc(C[n+]2cc(-c3ccc4ccccc4n3)cc3ccccc32)cc1  IC50 (virF (Shigella flexneri, UniProt P0A2T1); reporter gene expression, inhibitor; Escherichia coli, virB-lacZ reporter strain; 3 h, 37 °C, 6.2% DMSO, added: 1 mM IPTG): 26000 nM
[O-][n+]1c(CN2CCCCC2)nc2cccc3c2c1-c1ccccc1-3  IC50 (Tumor protein 63, isoform gamma (TP63, Homo sapiens, UniProt Q9H3D4); DNA binding, complementation): 70 nM
CN[C@@](C)(C[18F])C(=O)O  tissue uptake (SCID mouse DU-145 xenograft, blood; 15 min, post injection): 2.2 ± 0.4 %ID/g
C=C(NC(=O)C(=C)NC(=O)c1csc(C2=N[C@@H]3c4csc(n4)[C@H]4NC(=O)c5csc(n5)[C@H]([C@](C)(O)[C@@H](C)O)NC(=O)[C@H]5CSC(=N5)/C(=C/C)NC(=O)[C@H]([C@@H](C)O)NC(=O)c5csc(n5)[C@]3(CC2)NC(=O)[C@H](C)NC(=O)C(=C)NC(=O)[C@H](C)NC(=O)[C@H]([C@@H](C)CC)N[C@@H]2C=Cc3c([C@H](C)O)cc(nc3[C@H]2O)C(=O)O[C@@H]4C)n1)C(N)=O  IC50 (PSMB5 (Homo sapiens, UniProt P28074); chymotrypsin-like activity, inhibitor; purified human 20S proteasome; 37 °C, 15 min preincubation, added: Suc-Leu-Leu-Val-Tyr-AMC): 1000 ± 100 nM
O=C1O[C@H]2[C@@H]3OC(=O)c4cc(O)c(O)c(O)c4-c4c(O)c(O)c5oc(=O)c6c(c(O)c(O)c7oc(=O)c4c5c76)-c4c(cc(O)c(O)c4O)C(=O)OC[C@H]3OC(O)[C@@H]2OC(=O)c2cc(O)c(O)c(O)c2-c2c1cc(O)c(O)c2O (mixture of isomers)  IC50 (ALKBH2 (Homo sapiens, UniProt Q6NS38); 1-methyladenine repair, inhibitor, HPLC; 1 h, 37 °C, added: ssDNA 16mer 5 µM): 2500 nM
C=C1C(=O)N[C@@H](C)C(=O)N(C)[C@@H](C)C(=O)N[C@@H]([C@H](OC(=O)[C@@H](NC(=O)CC)[C@H](O)C(C)C)C(C)C)C(=O)N(C)[C@@H]([C@@H](C)OC)C(=O)O[C@H](C(C)C)[C@H](NC(C)=O)C(=O)O[C@H](Cc2ccccc2)C(=O)N1C  IC50 (GNAI1 (Homo sapiens, UniProt P63096, H188P/K180P/T187Y/V185I/V50I/V72L/Y69F); nucleotide exchange rate, inhibitor, BODIPY-GTPγS binding): 76000 nM
CC1(C)CCC(C)(C)c2cc(NC(=O)c3ccc(C(=O)O)cc3)ccc21  IC50 (topA; enzyme activity, inhibitor): > 250000 nM
Oc1ccc(-c2c[se]cc2-c2ccc(O)c(F)c2)cc1F  IC50 (ESR2 (Homo sapiens, UniProt Q92731); antagonist; HEK293T; added: estradiol 10 nM): 1 nM
NCc1ccc(-c2ncc(OCC3CCNCC3)nc2-n2ccnn2)cc1  IC50 (Genome polyprotein NS2B-NS3 protease; inhibitor; Zika virus): > 10000 nM
O=C1C2CC=CCC2C(=O)N1c1n[nH]c(Cc2ccccc2)n1 (stereo not shown)  IC50 (ALPL (Homo sapiens, UniProt P05186); enzyme activity, inhibitor, luminescence; added: 50 µM CDP-star, 100 mM DEA): 126 ± 5 nM
NCc1ccc(-c2ncc(OCC3CCNCC3)nc2-c2cn[nH]c2)cc1  IC50 (Genome polyprotein NS2B-NS3 protease; inhibitor; Zika virus): 5800 nM
O=C(OC(C(F)(F)F)C(F)(F)F)N1CCC(C(O)(c2ccc3c(c2)OCO3)c2ccc3c(c2)OCO3)CC1  IC50 (MGLL (Homo sapiens, UniProt Q99685); enzyme activity, inhibitor): 0.14 nM
CCCCCc1cc(O)cc(OC(=O)c2c(O)cc(O)cc2CCCCC)c1  IC50 (topA; enzyme activity, inhibitor; range shared with DNA gyrase): 250000 to 500000 nM
O=C([O-])c1ccccc1-c1c2cc(Br)c(=O)cc-2oc2[c]([Hg+])c([O-])c(Br)cc12.[Na+].[Na+].[OH-]  IC50 (Dual specificity protein phosphatase 5 (Homo sapiens, UniProt Q16690); phosphatase activity; 30 min, without DTT, added: pNPP): 6500 ± 200 nM
C[C@@H]1C[C@H]2[C@@H]3CCC4=CC(=O)C=C[C@]4(C)[C@@]3(Cl)[C@@H](O)C[C@]2(C)[C@@]1(OC(=O)c1ccco1)C(=O)CCl  IC50 (ABCC1 (Homo sapiens, UniProt P33527); transporter efflux, inhibitor): 5400 nM
Phoxim oxon  IC50 (rat liver carboxylesterase; enzyme activity, inhibitor; rat, postnatal day 70, liver homogenate; added: p-nitrophenyl valerate): 0.4 nM
CN1CCC(Oc2ccc(Cl)cc2C(=O)Nc2ccc([N+](=O)[O-])cc2Cl)CC1  IC50 (Genome polyprotein, NS2B-NS3 interaction (dengue virus type 2, UniProt P29990); NS2B-NS3 interaction, inhibitor, split luciferase complementation; dengue virus 2): 10800 nM
CC(C)(C)OC(=O)N[C@H](C(=O)O)[C@@H]1CC(Br)=NO1  IC50 (CTP synthase (Trypanosoma brucei brucei, UniProt Q4GZ95); enzyme activity, inhibitor, coupled spectrophotometric; pre-incubated with enzyme): 43 ± 3 nM
CCCCCCCCCN1C[C@@H](O)[C@@H](O)[C@@H](O)[C@H](O)[C@@H](O)C1  IC50 (Non-lysosomal glucosylceramidase (Gba2, Rattus norvegicus, UniProt Q5M868); inhibitor; Long Evans rat, testis microsomes; added: 4-methylumbelliferyl glucoside): 766000 nM
O=S(=O)(O)Oc1ccc(-c2ccc(Cl)cc2Cl)cc1Cl  IC50 (SULT1E1 (Homo sapiens, UniProt P49888); enzyme activity, inhibitor, radiometric; pH 7.4): 440 nM
CN(C)C(=O)C(CCN1CCC(O)(c2ccc(Cl)cc2)CC1)(c1ccccc1)c1ccccc1  IC50 (Calcium-activated potassium channel subunit alpha-1, with LRRC26 γ1 subunit (KCNMA1, Homo sapiens, UniProt Q12791); BK current, inhibitor, inside-out patch clamp; BKα/γ1 channels; asymptotic, strong depolarization, added: nominal 0 Ca2+): 2100 ± 200 nM
CN(C)CCCC1(c2ccc(F)cc2)OCc2cc(C#N)ccc21 (stereo not shown)  IC50 (Dopamine transporter (Schistosoma mansoni, UniProt E9LD23)): 50500 ± 4700 nM
CC[C@H](C)[C@H](NC(=O)[C@@H](NC(=O)[C@@H](N)Cc1ccccc1)C(C)C)C(=O)N[C@@H](Cc1ccccc1)C(=O)N[C@@H](C)C(=O)N[C@@H](CS)C(=O)N[C@@H](CC(N)=O)C(=O)N[C@@H](Cc1ccccc1)C(=O)N[C@H](C(=O)O)C(C)C  IC50 (HLA class I histocompatibility antigen, A alpha chain, allele A*02:02 (Homo sapiens, UniProt P04439); peptide binding, radiolabelled peptide competition; added: radiolabelled standard peptide): 11 nM
CC(C)(O)[C@H]1O[C@H]2CC[C@@]3(C)[C@@](O)(CC[C@H]4Cc5c([nH]c6ccccc56)[C@@]43C)C2=CC1=O  IC50 (Kcnma1 (Mus musculus, UniProt Q08460); BK current; Xenopus oocytes; closed channels, extrapolated): 12.1 ± 1.1 nM
O=C([O-])c1ccccc1-c1c2cc(Br)c(=O)cc-2oc2[c]([Hg+])c([O-])c(Br)cc12.[Na+].[Na+].[OH-]  IC50 (EHMT1; enzyme activity, inhibitor): 42900 nM
CCOc1ccc2nc(-c3c(O)c4ccccc4oc3=O)ccc2c1  IC50 (mushroom tyrosinase; enzyme activity, inhibitor; pH 6.5, 25 °C, added: L-tyrosine 1 mM): 17900 ± 700 nM
COc1ccc(C[C@H](NC(=O)[C@H](C)NC(=O)c2ccc(-c3ccccc3)cc2)C(=O)N[C@@H](CC(C)C)C(=O)C(=O)Nc2ccccc2)cc1  IC50 (Proteasome component C5/PSMB5, chymotrypsin-like site (Homo sapiens, UniProt P20618+P28074); enzyme activity in cells, inhibitor): 134 nM
CN1C(=O)[C@]23SS[C@@]1(C)C(=O)N2[C@H]1Nc2ccccc2[C@@]1([C@@]12c4ccccc4N[C@@H]1N1C(=O)[C@@]4(C)SS[C@]1(C(=O)N4C)[C@H]2O)[C@@H]3O  IC50 (EHMT1; enzyme activity, inhibitor, radiometric): 1270 nM
O=C(CCNNC(=O)c1ccncc1)NCc1ccccc1  IC50 (Beta-glucuronidase (GUSB, Bos taurus, UniProt A3KMY8); enzyme activity, inhibitor): 74800 nM
Clc1cc(OCc2nnc3sc(Cc4ccccc4)nn23)c(Cl)cc1OCc1nnc2sc(Cc3ccccc3)nn12  IC50 (Genome polyprotein NS2B-NS3 protease; enzyme activity, inhibitor; Zika virus; pH 8.0, added: 20 µM Pyr-RTKR-AMC): > 10000 nM
CC12CCC3c4ccc(OS(N)(=O)=O)cc4CCC3C1CCC2=O (stereo not shown)  IC50 (Steryl-sulfatase (STS, Homo sapiens, UniProt P08842); enzyme activity, inhibitor; lysate): 79 nM

For quick reference, copied from above:
CCCCCCCCCN1C[C@@H](O)[C@@H](O)[C@@H](O)[C@H](O)[C@@H](O)C1  IC50 (Non-lysosomal glucosylceramidase (Gba2, Rattus norvegicus, UniProt Q5M868); inhibitor; Long Evans rat, testis microsomes; added: 4-methylumbelliferyl glucoside): 766000 nM
C=C(NC(=O)C(=C)NC(=O)c1csc(C2=N[C@@H]3c4csc(n4)[C@H]4NC(=O)c5csc(n5)[C@H]([C@](C)(O)[C@@H](C)O)NC(=O)[C@H]5CSC(=N5)/C(=C/C)NC(=O)[C@H]([C@@H](C)O)NC(=O)c5csc(n5)[C@]3(CC2)NC(=O)[C@H](C)NC(=O)C(=C)NC(=O)[C@H](C)NC(=O)[C@H]([C@@H](C)CC)N[C@@H]2C=Cc3c([C@H](C)O)cc(nc3[C@H]2O)C(=O)O[C@@H]4C)n1)C(N)=O  IC50 (PSMB5 (Homo sapiens, UniProt P28074); chymotrypsin-like activity, inhibitor; purified human 20S proteasome; 37 °C, 15 min preincubation, added: Suc-Leu-Leu-Val-Tyr-AMC): 1000 ± 100 nM
